# Measurements gathered from unrelated publications.
# Numbered parts are unrelated; each lists some results of a single study. Changes are numbered by the printed parent chain.

# Study 1
# Target: Fragile X messenger ribonucleoprotein 1, C-terminal low-complexity region (Fmr1, Mus musculus, UniProt P35922)
# Technique: RNA Bind-n-Seq
# Form: RNA
# Matrix: in vitro
# Tested at: 200 nM
# Setting: whole 134-nt RNA, ends assumed
# With: 150 mM LiCl
# Relative to: input library
# Reading: higher = stronger binding
# All molecules: 7-deaza-guanosine replaces G
# All sequences stand within: GGGAGUUCUACAGUCCGACGAUC … UGGAAUUCUCGGGUGUCAAGG
Strand,log2 enrichment
GUCCUGUGCUACACAUCGUAUGUACCGAAUCGGGCCCCCGGGGCCCCCGGGCCCCCGGGAAAGUAUUAUGUUACGCCGUUCGGAUCUGCA,-3
AGUCCUGUGCUACACAUCGUAUGUACCGAAUCGGUUUUUUUGGUUUUUUUGGAAAGGAAAGUAUUAUGUUACGCCGUUCGGAUCUGCACU,-2.02
CCUCAAGUCCUGUGCUACACAUCGUAUGUACCGAAUCGGUUUGGAAAGGUGGAAAGUAUUAUGUUACGCCGUUCGGAUCUGCACUUCCAG,0.0614
UGGCCCUGGUGGCAUGCGGGGAGGAAGAGGUGGCCUCAUGGAUCGUGGUGGUCCCGGUGAAAUGUUCAGAGGUGGCCGUGGUGGAGACAG,-0.571
UGUGCUACACAUCGUAUGUACCGAAUCGGGGAAAAAAAGGGGUUUUUUUGGGGUUUUUGGGGAAAGUAUUAUGUUACGCCGUUCGGAUCU,-2.36
GCAGGAAGUAAAAACAAAUGGAAAUGCUUCGGAUAGUGGCAGGGGUGGGGGUUGCUAAGGGAAGGGUGGGAUGGGAGUGGGUAAAGAGUU,1.49
ACCAUGCAGGUGGGCAUCUUUGGGAAGUGGGGCAAGGGGGGGAUAGGGAGGGGGGUAACACUUCGGGAACAGGUGGUCCCAGGUCGUUUC,1.42
AGUCCUGUGCUACACAUCGUAUGUACCGAAUCGGAAAAAGGAAAAAAAGGAAAAAGGAAAGUAUUAUGUUACGCCGUUCGGAUCUGCACU,-2.07
CAAGUCCUGUGCUACACAUCGUAUGUACCGAAUCGGAAAGGUUUGGAAAAAAAGGAAAGUAUUAUGUUACGCCGUUCGGAUCUGCACUUC,-1.54
UGGCCCUGGUGGCAUGCGGGGAGGAAGAGGUGGCCUCAUGGAUCGUGGUGGUCCCGUUGGAAUGUUCAGAGGUGGCCGUGGUGGAGACAG,-0.017
CCUGUGCUACACAUCGUAUGUACCGAAUCGGGGAAAAAGGGGUUUUUGGGGUUUUUGGGGAAAGUAUUAUGUUACGCCGUUCGGAUCUGC,-1.4

# Study 2
# Target: RNA binding protein fox-1 homolog 2, RRM domain, GST-SBP tag (RBFOX2, Homo sapiens, UniProt O43251-10, residues 100-194)
# Technique: RNA Bind-n-Seq
# Form: RNA
# Matrix: in vitro
# Tested at: 365 nM
# Setting: natural RNA segment, single round, ends assumed
# Relative to: no-protein control
# Reading: higher = stronger binding
# All sequences stand within: GGGAGUUCUACAGUCCGACGAUC … UGGAAUUCUCGGGUGCCAA
# Construct (chain): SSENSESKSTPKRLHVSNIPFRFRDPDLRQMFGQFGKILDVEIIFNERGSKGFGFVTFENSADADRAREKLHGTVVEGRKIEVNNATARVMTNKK
Strand,RBNS enrichment (R)
UUACAGCUUCCUCUGGGAGGUCGUGUAGACCCAGUGGGCAAGCAGGACAAGGGCCCAGAACUGAAACUUGAUCUUAAAAUUUACCAUGGAAAUGAGGUCUUAGGCUCUUC,0.244
UUUUUGUUGGUUUAUUAUAAAUUAUUCUUCUAGAUGCAUCUUUUAUAACUAGGAUUUCAUUUUGUGUGUAUAGCUUAUGUAAUAAAUUUUAAAGGUGAAAACUCUCUUAA,0.698
UCUGUUCUCACAGCCUCUGAGAUGUCUCAGGUGAGAGCCAUGGGGUGGAACCAUAAAGUCCCCAUCUCAAAGUGUGCCUGUGGGACAGGGUUAGUAGCUACUCCCCGAGG,0.437
GCCAUUUGCACUCCAGCCUGGGCAACAAGAGCGAAAUUCCAUCUCAAAAAAAAAAGGUGGGUAAAGGGCCAUGAGCCCAAACCACUAGGUUGUUCACCUUUUCAUCUGAA,0.293
ACUCAGAUGGAAAAGUAUUCUAGGUGCCAGUGUUAGGAUGUCAGUUUUACAAAAUAAUGAAGCAAUUAGCUAUGUGAUUGAGAGUUAUUGUUUGGGGAUGUGUGUUGUGG,3.78
UUGGUUUCUGAUGAUUUAUAAGUAACUACAAAAGAAAGAGACCUGUUCUUGAACAGAUACUAUGUCUAUAACUCAGAUCGCACCAAACUUCCUGUGGUGACAGACUCUUC,0.252
GAACAAUGCCAGGGCCCAGGAGGACCGCCUGCCCUGCCUGGGCCUUGGCUGGGCCUCUGGUUCUGACACUUUCUGCUGGAAGCUGUCAGGCUGGGACAGGCUUUGAUUUU,0.883
UCCUGCUGAGCCAAAGUUUUCUCAUUACCCCUCCACUGGGGAAGCAGCUGAGGCCCAGGGCCUUGCUCCCUGGGAAAUUCUCUUCUCUCCAUCUUUCGGUGCAUUGGCCA,0.391
AUGUUUCAAUACCUACAAACCUAUUGAAAGAGAACAGUAGGUAAAACAUUUCCUAAAGUUGAAGCAAUAGCUUCGUAGAUUCUUGGUUACUUUAUUUUUUUUAAUGCUUU,0.785
AAAGAUGAACUUCACUUGGGCCAGAUAGGCUGAACCAAGCUUCCUGGCGUUUGUAGAGAAAGUGGGACGCUGUUCUCUUCAUAUUUAAAUGCCAGCCAGGUGCUGGCUGU,0.269
GAAGCCAGUUUGACAUAGAGAGAUGUCAGAUUGAUUUGAAAGGUGUGCAGCCUGAUUUAAAACCAAACCCUGAACCCUUUUAAAGAACAAUAAAACAUAUUUUACACGCU,0.537
CCCACAGACUGAACCUUUCGCCAGAAGCUGUCCUUAUAACGCCUUAUACGCAUACACAGCCAGGAAACGUGGAGCAUUGUUUCUCACAGAGAGUCUCCAAAUAAAAAGGG,0.36

# Study 3
# Organism: Saccharomyces cerevisiae
# Observed: binding
# Technique: yeast competitive growth sequencing
# Form: peptide
# Strain: cyclin A1-Cln2 strain
# Matrix: peptide tiling library
# Setting: pooled screen
# Reading: direction not given
Molecule,enrichment score
KPKPVKPVTFSTGIKM,0.982
IVLICAKRSLCAAFSV,-1.18
VLVRTSACRSLFGPVD,-2.26
PKRAKRKLYTSEISSP,0.1
PAKRRLELGE,0.417
TARRIFQEPTEPKTKA,-1.02
PARRRLRLSVDEVSSP,-0.526
SSEVARHLLFQSHM,-1.02

# Study 4
# Target: ATF7, bZIP domain (human)
# Technique: DHFR protein complementation
# Matrix: yeast
# Setting: single substitutions, most at no-binding floor
# Relative to: wild-type JUN-FOS pair
# Reading: higher = stronger binding
# Parent: JUN, bZIP domain (human); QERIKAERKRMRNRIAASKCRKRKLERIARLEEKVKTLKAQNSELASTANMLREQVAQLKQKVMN; partner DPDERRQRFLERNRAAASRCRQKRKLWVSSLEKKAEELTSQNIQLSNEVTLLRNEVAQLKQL
Change,binding fitness
K36H,-1.1 natural log
I28N,-1.23 natural log
V56S,-1.48 natural log
E54Y,-0.991 natural log
Q55A,-1.12 natural log
K36Q,-0.933 natural log
E32L,-0.832 natural log
R30G,-0.933 natural log
L31F,-1.36 natural log
K36M,-0.817 natural log
K36P,-1.46 natural log
K34H,-0.877 natural log
K34Y,-1.07 natural log
E33V,-1.2 natural log
I28G,-1.21 natural log
L45R,-1.53 natural log
R53D,-1.44 natural log
T37E,-0.751 natural log
E44Y,-1.16 natural log
L38E,-1.59 natural log

# Some of these lines once more (study 2):
Strand,RBNS enrichment (R)
UCUGUUCUCACAGCCUCUGAGAUGUCUCAGGUGAGAGCCAUGGGGUGGAACCAUAAAGUCCCCAUCUCAAAGUGUGCCUGUGGGACAGGGUUAGUAGCUACUCCCCGAGG,0.437
UUUUUGUUGGUUUAUUAUAAAUUAUUCUUCUAGAUGCAUCUUUUAUAACUAGGAUUUCAUUUUGUGUGUAUAGCUUAUGUAAUAAAUUUUAAAGGUGAAAACUCUCUUAA,0.698
AAAGAUGAACUUCACUUGGGCCAGAUAGGCUGAACCAAGCUUCCUGGCGUUUGUAGAGAAAGUGGGACGCUGUUCUCUUCAUAUUUAAAUGCCAGCCAGGUGCUGGCUGU,0.269
UCCUGCUGAGCCAAAGUUUUCUCAUUACCCCUCCACUGGGGAAGCAGCUGAGGCCCAGGGCCUUGCUCCCUGGGAAAUUCUCUUCUCUCCAUCUUUCGGUGCAUUGGCCA,0.391
